Assay results pooled from the literature.
A part holds a random share of what one study measured.

Block 1 — technique: RNA Bind-n-Seq; form: RNA; sample: in vitro; tested at: not given; relative to: input RNA pool; reading: higher = stronger binding
Target: RING finger protein unkempt homolog, zinc fingers 1-6, GST-SBP tag (UNK, Homo sapiens, UniProt Q9C0B0, residues 30-357)
Setting: RNA with constant flanks, human and mouse sites, ends assumed
Shared flanks, not repeated: GGGAGUUCUACAGUCCGACGAUC … CAACAGAGGAUUGAGCAUCA
Residues (chain): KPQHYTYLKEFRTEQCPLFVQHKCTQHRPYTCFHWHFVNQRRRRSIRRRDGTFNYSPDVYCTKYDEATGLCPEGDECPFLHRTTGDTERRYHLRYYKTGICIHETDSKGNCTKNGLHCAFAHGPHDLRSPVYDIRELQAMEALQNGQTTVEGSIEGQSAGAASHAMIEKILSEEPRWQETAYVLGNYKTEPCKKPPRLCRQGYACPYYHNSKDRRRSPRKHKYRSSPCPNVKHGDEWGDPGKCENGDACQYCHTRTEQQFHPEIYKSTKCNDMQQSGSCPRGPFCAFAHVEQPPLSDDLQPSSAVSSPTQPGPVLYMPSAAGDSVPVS
| Sequence | bound/input enrichment |
| --- | --- |
| GCUAGAAAUGUGAGUACUUUAGAAAAAUCAGUUUUAGUGCCAAAUAAGGAAGCUGCUCUAGUGGUGACAUCUAAGAGGAGACCUACAAAGAAGUCUGCAGAGGAAAGCUCAAAAGAUCCA | 1.59 ratio |
| AUCACCACCAAGGCUGAUAUCUGGGCACUGGGAUGUCUACUCUAUAAACUUUGUUUCUUCACUCUUCCUUUUGGUGAGAGUCAGGUUGCUAUCUGUGAUGGCAACUUCACCAUCCCAGAC | 0.0748 ratio |
| ACUGUGCCGGUGUGAAAGCUCUCCAGACUUGCACGCCUCACUGACGCUGCGCACAGAGAUGUGGAAGUGCUGCUGCUGCUGUCUAACGCUGCCUACUAUGUGGCCUAUUAUGAUGACGAA | 0.0915 ratio |
| GAACAGAUUGUGGAUUUCUUAAAGAAGAAGCAUGAUUUUGUAGACCUUAUUAUAAAGCACAUAGGAACUUCUGCUAUCAUGGAUUUGUUGCUCAGGCUCCUGACGUGUAUCGAACCUCCA | 0.379 ratio |
| UUCAGCCAAGCCAGACAGGAUGUCCUGAAGAGGAGCAUGUUGGGUUUUUUUGUUUGUUUGUUUGUUUUCCUAUCGCAGUGCAUUGUGGGUACUCCACACCCAAAGGGUCCUCUGGUGAAG | 0.235 ratio |
| AUAAUUGGGGAUGAACAUUUUUGAAGAUUUAUUCUUUUGUGUUGCUGGGGUGUAUACAUUUAUGUCUUUGUGAAAUACACUGGUGGUGUCCUUCUUAAAAACUUUUGAAAUAAAAAAAGA | 0.5 ratio |
| AUUAUUUUUAAUGAAAUGCCAAUAUAAUUUUUUAAGAAAGCAGUAAAUUCUCAUCAUGAUCAUAGGCAGUUGAAAACUUUUUACUCAUUUUUUUCAUGUUUUACAUGAAAAUAAUGCUUU | 0.253 ratio |
| GAAGAUGAGAAAUACCUGCAGACAAUAAUGGAUGCUAAUGCACAGUCACAUAAACUUACUAUCUUUGAUGCCAGACAAAACAGCGUUGCUGAUACCAACAAGGCAAAGGGUGGUGGAUAU | 0.314 ratio |
| CCCUCAAGAUGGUCACUUUACACUGAAAGCUGAGCUCAGCAGGAGCACUGUGGGAAACAAAGCAUUGACUCUUGAGUACAGAGUUUAAAAUAGACUUUUCUUUUAGAACUAGAAUUAGAG | 19.5 ratio |
| GCACAUGAUUUGGGAAUUACACUUUGUGACAUGGAUGAAUCUGCACUGACCCUUGGUACAAUAGAUGUUUCUUAUCUGCCACAUUCAUCAGAAUACAGUGUUGGUCGAUGUAAGCACACA | 0.241 ratio |
| UUGGCCAUCAAGCCAUUUUACCAAAAUAAAGAUAUCACCAAGGAAGAAUAUAAAGAAAUUGUACGGAAAGCAGUAGAUAAAGUUUGUCAUAGUAAGAGUGGAGAAGUAAAUUCUACUAAA | 1.15 ratio |

Block 2 — technique: competition protein-binding microarray; form: double-stranded DNA, one strand shown; sample: in vitro; tested at: 2 µM; with: Cbf1 competitor, 0.05 µM; reading: higher = stronger binding; shared flanks, not repeated: … GTCTTGATTCGCTTGACGCTGCTG
Target: Phosphate system positive regulatory protein PHO4, full length, GST-tagged (PHO4, Saccharomyces cerevisiae, UniProt P07270, residues 1-312)
Sequence of UniProt P07270 (whole entry, looked up): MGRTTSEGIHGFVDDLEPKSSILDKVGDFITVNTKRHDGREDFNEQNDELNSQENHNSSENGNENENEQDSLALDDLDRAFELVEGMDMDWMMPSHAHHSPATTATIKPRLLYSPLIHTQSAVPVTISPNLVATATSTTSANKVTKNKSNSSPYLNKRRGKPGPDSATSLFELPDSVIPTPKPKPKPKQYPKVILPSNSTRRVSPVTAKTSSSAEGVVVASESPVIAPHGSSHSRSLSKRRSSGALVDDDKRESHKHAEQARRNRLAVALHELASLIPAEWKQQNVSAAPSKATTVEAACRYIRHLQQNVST
Setting: whole 60-bp probe, lowest competitor level
| Sequence | fluorescence intensity |
| --- | --- |
| CTGCCTTTATTTATTACCGTGCCAGACAAAGGGGCT | 4900 a.u. |
| CGTCCTAGTGATTTACACGTGTTTTCCATGAGGAAG | 17700 a.u. |
| CATACCCAACCTTTTCACGTGCAATAAGATATTTGT | 16200 a.u. |
| TTCATAGTAAAGTTCCTCGTGAAACTGGTTTCTCAA | 4820 a.u. |
| TGGACAAGACCAAGCCAGGTGACGGAGTTAACGTTG | 3690 a.u. |
| CTTCAGGGCAACAACCATGTGTTTCCTGGAAGCTTG | 8260 a.u. |
| CTTTCCCGATCTTTTCACGTGTTATTAGCACATTTG | 14000 a.u. |
| CATACCCAACCTTGTCACTACACTTAAGATATTTGT | 3980 a.u. |
| CCGGCCCGTCCCGTCCGCGTGGTGAGTAATTCTGGC | 11400 a.u. |
| CTCTGCCCTGCTTAGCACGTAGAAGGTCTCCGGCTG | 6300 a.u. |
| GTCTTGTCTCATTGACCGGTGGGTGTCCCCACTTCA | 4000 a.u. |
| TATGGCATGAAAAATCATATGACTTCAAAAATGAAC | 4060 a.u. |
| TGACCTCTAGATCGGCACGTCGACCATCAGTGGGAA | 6870 a.u. |
| GTCTAAATTATTCCGCACGTTTTTCGGTGTGGTACA | 14000 a.u. |
| ACATCGACGTTATCGCACGTGTGGATGTGTAAGTGG | 18800 a.u. |
| CTTTCCCGATCTTGAGGCGTGGGTGTAGCACATTTG | 8850 a.u. |
| TTGCGGGTTACAAAGCACGGGTCCATTGAAGATCTT | 8570 a.u. |
| GTCTTGTCTCATTTACACGTGTTTTTCCCCACTTCA | 14900 a.u. |
| CGTCCTAGCGATTGACACGTGGGTGCCATGAGGAAG | 18900 a.u. |
| GGAGAAGGTATTGATAACCTGCGGGACCGTCTGGTG | 2720 a.u. |
| CTTTCCCGATCTTGGCTTGTGGGTGTAGCACATTTG | 5060 a.u. |
| GCTGCAGGTTCTAACCATGTGATGACAATGGATTTG | 8130 a.u. |
| AAAAGCAACTCGACCGTCGTGGGTACAAACCCCACC | 7160 a.u. |
| ATTGGGCGGCTAATCGGCGTGCTGTATAAATCGAGT | 9180 a.u. |
| GCCATTAGTTTTTTACCTGTGTGGCCATTATACATA | 4240 a.u. |

Block 3 — technique: RNA Bind-n-Seq; form: RNA; sample: in vitro; tested at: 365 nM; relative to: no-protein control; reading: higher = stronger binding
Target: RNA binding protein fox-1 homolog 2, RRM domain, GST-SBP tag (RBFOX2, Homo sapiens, UniProt O43251-10, residues 100-194)
Setting: natural RNA segment, single round, ends assumed
Shared flanks, not repeated: GGGAGUUCUACAGUCCGACGAUC … UGGAAUUCUCGGGUGCCAA
Residues (chain): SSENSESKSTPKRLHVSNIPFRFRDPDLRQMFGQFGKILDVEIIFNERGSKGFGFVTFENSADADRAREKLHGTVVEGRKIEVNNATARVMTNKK
| Sequence | RBNS enrichment (R) |
| --- | --- |
| AGCACCAUAACCAAGAAAUACUAAUGUAAAGAUUGUUUCUUGUUUCAGGAAUGGUUAAUUCUUCAACGUUGGUAUGAUAAUGAUAACUUGUUUUGACUUGAAUAAAGUAC | 0.287 |
| CUUCAGAACUCACAGGACAGGGAUUGCUGGAGAACACUGCGAGCUGUGGAGCACACUUAAGGGAUGGGAUGGUCAGAGGCGCUCCCGAGCAAGCGGGGCAUCAUUCUCCC | 0.896 |
| CAAGGAAUAAUUACUUUCACUCUGCUGGCUUAAUCAGUGAAGGAACAUAAAAGGAAAGCUGGCAGUGGGUCUUGGUAAUAUAUGAACUAUAUUAGAGUGCCAGAAAAGGA | 0.717 |
| GUAAAGAAUGUUUGUACUGUUCCAAAACCCAGGCUUCUUUAUUCCUUUACCACUAUCCAUGUGAGCAUUGACAAAUCAUGGCUUAGAGGUGCUCACUGACUCGCUAAGAC | 0.269 |
| AAACAAACCCCUUUUUGGUACCUGCACUGCAUCCCUCGGGUGGGGCAGUGCCUACUUUGGAAGAUGCUGCAGCCUGCGAGGGGAUCUGCUGGGGCUUCCCCUUCGCCACA | 0.574 |
| AUAGGUGCCCGCCACCAGACCCGGCUAAUUUUUUAGUUUUAGUAGAGACGGGGUUUCACCACGUUGGCCAGGCUGGUCUUAAAUGACCCUCUUAUUUUUAACUUGGAUAC | 0.295 |
| UUCCUUUUAGUAUGUUUCAAGUGCAGUAAUCGUACUUGUCUAUCCAGUUUCUAUGUAUGAUACGAGUUGCUUACACGAUGCAUGGCUAACUUGUUAAUUUAGUUUUCUCC | 9.65 |
| UUAGUUGAUCCGGUUUCUCUGUUCUGACAAGGUGGAAAACUGGUAAGCAUCUCAGAUCUGCAGUAUUGUGGUGGUGCUCCACUGAGCAGGAGUCCACUCAGAAGCAUGAG | 0.636 |
| CAUACAAGAUGACCCUCUGAGCUUUUCAUUUAUUCAAGCUCUGUGGUACAGCCUUUUUUUAAAAUAAAUUAAUCUAUAUUGGUUGACAAACAAGCCACCAACCACUGACU | 0.524 |
| UUGUUUUAAAUUUUCAUCAAUGUAUAUAGAACAAAAUACCAUAUUAAAGAGGGGAAUGUGGAGGACUAAAGAUGACAGUUUGGACUUUUCUUUCUAUGCUAAGUAAUGUC | 0.923 |
| GCUGAUUUGAAAUUUAGAUUUUUUAAAUUAUGUACUGGGGACAGGUUUUUGUCGCUUUACAUUGCUUCCUAGUUUACAGCAUGAUGCAAAUGAUUUUCUAACUUAGUGUU | 3.49 |
| AAUUAUGAUAACAUGAGAUUUGCUGUUGUGCUUUUAGAGAAAAGUCUGGACUCAGCCACAAACUCUAAUAAGACCUGUACAUCUGAGAACCUUUCCCGUUACUGCGUUUU | 0.467 |

Block 4 — technique: protein binding microarray; form: double-stranded DNA, one strand shown; sample: in vitro; tested at: not given; relative to: not given; reading: higher = stronger binding
Target: Histone acetyltransferase KAT6A, winged helix 1, GST fusion (KAT6A, Homo sapiens, UniProt Q92794, residues 1-85)
Setting: 8-mer, flanks averaged, mean of 2 arrays, mostly near background
Residues (chain): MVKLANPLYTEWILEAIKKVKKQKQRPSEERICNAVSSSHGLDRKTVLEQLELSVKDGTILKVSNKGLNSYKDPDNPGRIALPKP
| Sequence | E-score |
| --- | --- |
| ATAGATAC | -0.169 |
| AAGAACTA | -0.0295 |
| CTTACTAC | -0.0429 |
| AAAAAGGT | -0.149 |
| CAGAGCTC | -0.0302 |
| GCTGAGTA | -0.162 |
| GCAAGTAA | -0.234 |
| GGAATCTA | -0.0975 |
| CAGCGAAC | -0.0533 |
| TGCAGGCA | -0.201 |
| CCCGTTAC | 0.26 |
| AGCTCCTA | -0.107 |
| AGGCACAA | -0.177 |
| CTAACGCA | 0.121 |
| GTCATGCA | -0.182 |
| AGTAGGGG | -0.0606 |
| GCCTAGAC | 0.115 |
| AACTCATT | -0.159 |
| GCTGTTCC | -0.0631 |
| ACAGGGCT | -0.0641 |
| ACGCAGGC | 0.175 |
| CTCACCGA | -0.0171 |

Some of these lines once more (block 2):
| Sequence | fluorescence intensity |
| --- | --- |
| GTCTTGTCTCATTGACCGGTGGGTGTCCCCACTTCA | 4000 a.u. |
| CTTTCCCGATCTTGAGGCGTGGGTGTAGCACATTTG | 8850 a.u. |
| TGGACAAGACCAAGCCAGGTGACGGAGTTAACGTTG | 3690 a.u. |
| CTTTCCCGATCTTGGCTTGTGGGTGTAGCACATTTG | 5060 a.u. |
| CTTTCCCGATCTTTTCACGTGTTATTAGCACATTTG | 14000 a.u. |
| GGAGAAGGTATTGATAACCTGCGGGACCGTCTGGTG | 2720 a.u. |
| CTCTGCCCTGCTTAGCACGTAGAAGGTCTCCGGCTG | 6300 a.u. |
